{"data": "Published values gathered from unrelated publications", "note": "Parts stem from different laboratories: compare values within a part only. Positions count from the first letter of the parent shown."}
{"data": "Series 1", "target": "Histone acetyltransferase KAT6A, both winged helices, GST fusion (KAT6A, Homo sapiens, UniProt Q92794, residues 1-181)", "method": "protein binding microarray", "molecule type": "double-stranded DNA, one strand shown", "sample": "in vitro", "concentration": "not given", "notes": "8-mer, flanks averaged, mean of 2 arrays, mostly near background", "reference": "not given", "direction": "higher = stronger binding", "Construct (chain)": "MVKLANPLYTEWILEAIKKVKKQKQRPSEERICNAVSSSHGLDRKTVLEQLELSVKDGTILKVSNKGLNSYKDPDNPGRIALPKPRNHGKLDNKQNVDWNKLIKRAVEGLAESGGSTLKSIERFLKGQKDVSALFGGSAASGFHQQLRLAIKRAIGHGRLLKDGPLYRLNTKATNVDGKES"}
{"Oligonucleotide": "GGCTCCCA", "E-score": -0.0677}
{"Oligonucleotide": "CTCCACCC", "E-score": -0.183}
{"Oligonucleotide": "GCACCGCA", "E-score": 0.161}
{"Oligonucleotide": "GGGTCACA", "E-score": -0.184}
{"Oligonucleotide": "GGTACCCA", "E-score": -0.0855}
{"Oligonucleotide": "AAACTGAC", "E-score": -0.0638}
{"Oligonucleotide": "CATCGTCC", "E-score": -0.0065}
{"Oligonucleotide": "GAAATCCA", "E-score": -0.075}
{"data": "Series 2", "target": "Ras GTPase-activating protein-binding protein 1, full length (G3BP1, Homo sapiens, UniProt Q13283)", "method": "RNA Bind-n-Seq", "molecule type": "RNA", "sample": "in vitro", "concentration": "200 nM", "notes": "whole 134-nt RNA, ends assumed", "with": "150 mM KCl", "reference": "input library", "direction": "higher = stronger binding", "sequence of UniProt Q13283 (whole entry, looked up)": "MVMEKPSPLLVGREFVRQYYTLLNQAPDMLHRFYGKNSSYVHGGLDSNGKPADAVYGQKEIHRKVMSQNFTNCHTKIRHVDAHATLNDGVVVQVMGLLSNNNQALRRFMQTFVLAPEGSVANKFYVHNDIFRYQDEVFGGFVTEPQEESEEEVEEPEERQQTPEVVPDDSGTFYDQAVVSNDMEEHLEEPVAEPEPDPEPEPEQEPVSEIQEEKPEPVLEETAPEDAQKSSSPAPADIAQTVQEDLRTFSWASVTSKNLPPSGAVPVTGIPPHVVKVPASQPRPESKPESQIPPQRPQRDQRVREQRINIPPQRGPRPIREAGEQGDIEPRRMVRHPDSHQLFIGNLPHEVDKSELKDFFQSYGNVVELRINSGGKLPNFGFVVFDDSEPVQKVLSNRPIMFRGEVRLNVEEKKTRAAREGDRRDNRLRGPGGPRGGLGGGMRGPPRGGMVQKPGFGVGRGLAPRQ"}
{"Oligonucleotide": "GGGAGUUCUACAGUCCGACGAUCAAGUCCUGUGCUACACAUCGUAUGUACCGAAUCGGGAAAGGGAAAGGGAAAAAGGGAAAGUAUUAUGUUACGCCGUUCGGAUCUGCACUUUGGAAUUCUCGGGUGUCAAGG", "log2 enrichment": -0.0945}
{"Oligonucleotide": "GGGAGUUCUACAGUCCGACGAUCCAAGUCCUGUGCUACACAUCGUAUGUACCGAAUCGGCCCGGGCCCGGGGCCCGGGGAAAGUAUUAUGUUACGCCGUUCGGAUCUGCACUUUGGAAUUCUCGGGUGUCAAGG", "log2 enrichment": -1.21}
{"Oligonucleotide": "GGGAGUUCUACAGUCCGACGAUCUAACUUUAGAGGAGGAUCUGAUGGAUAUGGCAGUGGACGUGGAUUUGGGGAUGGCUAGAAUGGGUAUGGAGGAGGACCUGGAGGUGGCAAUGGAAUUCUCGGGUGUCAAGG", "log2 enrichment": 0.392}
{"Oligonucleotide": "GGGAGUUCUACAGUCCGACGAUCAAGUCCUGUGCUACACAUCGUAUGUACCGAAUCGGGUUUGGGAAAAAAAGGGAGGGAAAGUAUUAUGUUACGCCGUUCGGAUCUGCACUUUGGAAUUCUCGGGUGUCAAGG", "log2 enrichment": 0.483}
{"Oligonucleotide": "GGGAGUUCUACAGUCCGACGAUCUUGGCUCGAGAGAUUGAAUCAAGCCCCCAGUACCGCCUACGGAUCGCCAUGGAGAACGACGAUGGGCGCACUGAAGAGGAGAAGCACAGUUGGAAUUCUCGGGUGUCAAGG", "log2 enrichment": -0.342}
{"Oligonucleotide": "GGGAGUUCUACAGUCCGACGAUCAAGUCCUGUGCUACACAUCGUAUGUACCGAAUCGGGGAGGGGAAAAAGGGGUGGGGAAAGUAUUAUGUUACGCCGUUCGGAUCUGCACUUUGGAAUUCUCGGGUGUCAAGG", "log2 enrichment": 0.764}
{"Oligonucleotide": "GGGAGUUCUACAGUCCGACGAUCCACAGACAACACGCACCCACACAGACACAGAGGGAAGGGGUUGGGAUGGAGACAGGGUGCACAGCAGGGCGGGGUAGGACCCCAGCCCCUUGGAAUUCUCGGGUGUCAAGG", "log2 enrichment": 1.56}
{"Oligonucleotide": "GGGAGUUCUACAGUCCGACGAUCAAGUCCUGUGCUACACAUCGUAUGUACCGAAUCGGGUUUGGGUUUGGGUUUUUGGGAAAGUAUUAUGUUACGCCGUUCGGAUCUGCACUUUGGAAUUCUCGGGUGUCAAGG", "log2 enrichment": 0.0243}
{"data": "Series 3", "target": "Sal-like protein 4, full length isoform B (SALL4, Homo sapiens, UniProt Q9UJQ4-2, residues 1-616)", "method": "universal PBM", "molecule type": "double-stranded DNA, one strand shown", "sample": "in vitro", "concentration": "not given", "notes": "8-mer, flanks averaged, mean of replicates", "direction": "higher = stronger binding"}
{"Oligonucleotide": "CTAGTGAA", "E-score": -0.104}
{"Oligonucleotide": "ACTTCGCC", "E-score": -0.0857}
{"Oligonucleotide": "TCCCTCCA", "E-score": -0.245}
{"Oligonucleotide": "ATCCTCGA", "E-score": -0.0743}
{"Oligonucleotide": "ATTTAGTA", "E-score": 0.317}
{"Oligonucleotide": "CGTGCGCA", "E-score": -0.184}
{"Oligonucleotide": "AACCGTCA", "E-score": -0.118}
{"Oligonucleotide": "ACCGCCTG", "E-score": -0.309}
{"data": "Series 4", "target": "HLA class I histocompatibility antigen, A alpha chain, allele A*80:01 (Homo sapiens, UniProt P04439)", "effect on": "peptide-MHC binding", "molecule type": "peptide", "concentration": "concentration not given"}
{"Molecule": "RSLVCLAPK", "binding": "inactive"}
{"Molecule": "TLKPGTMSV", "binding": "inactive"}
{"Molecule": "AVEDFLAFF", "binding": "inactive"}
{"data": "Series 5", "target": "CCNE1, cyclin fold, Cln2 fusion (human)", "method": "yeast growth competition, sequencing", "sample": "yeast", "notes": "strong parent motif", "reference": "not given", "direction": "higher = stronger binding", "starting sequence": "viral docking peptide; YKVKRRLVFGADD"}
{"Change": "YKVKRRLVFGEDD [A11E]", "normalised enrichment score": 6.85}
{"Change": "YKVGRRLVFGADD [K4G]", "normalised enrichment score": 1.78}
{"Change": "YKVKRRLEFGADD [V8E]", "normalised enrichment score": 6.63}
{"Change": "YKVRRRLVFGADD [K4R]", "normalised enrichment score": 6.04}
{"Change": "YKVKRRVVFGADD [L7V]", "normalised enrichment score": 0.563}
{"Change": "YKVKRRLVFFADD [G10F]", "normalised enrichment score": 4.76}
{"Change": "YKVKRRNVFGADD [L7N]", "normalised enrichment score": 0.251}
{"Change": "YYVKRRLVFGADD [K2Y]", "normalised enrichment score": 5.4}
{"Change": "YKVKRREVFGADD [L7E]", "normalised enrichment score": 0.22}
{"Change": "YKVKQRLVFGADD [R5Q]", "normalised enrichment score": 0.624}
{"Change": "YKVKRRLIFGADD [V8I]", "normalised enrichment score": 5.71}
{"Change": "YKVKRRLVCGADD [F9C]", "normalised enrichment score": 0.489}
{"Change": "YKVKRTLVFGADD [R6T]", "normalised enrichment score": 3.23}
{"Change": "YKVKRRLVFSADD [G10S]", "normalised enrichment score": 5.5}
{"Change": "YKVVRRLVFGADD [K4V]", "normalised enrichment score": 5.48}
{"Change": "YKVDRRLVFGADD [K4D]", "normalised enrichment score": 0.577}
{"Change": "YKVKRRLVNGADD [F9N]", "normalised enrichment score": 0.282}
{"Change": "YKVKKRLVFGADD [R5K]", "normalised enrichment score": 2.46}
{"Change": "YKVKRRLPFGADD [V8P]", "normalised enrichment score": 0.491}
{"Change": "YKVKLRLVFGADD [R5L]", "normalised enrichment score": 0.155}
{"Change": "YKVKRHLVFGADD [R6H]", "normalised enrichment score": 1.85}
{"Change": "YKVKRLLVFGADD [R6L]", "normalised enrichment score": 1.85}
{"Change": "YKVKRRLVFPADD [G10P]", "normalised enrichment score": 6.44}
{"Change": "YKVKRRLVFGAID [D12I]", "normalised enrichment score": 4.7}
{"Change": "YKVKRRIVFGADD [L7I]", "normalised enrichment score": 2.67}
{"note": "Some of these lines once more (series 5):"}
{"Change": "YKVKRRLVFFADD [G10F]", "normalised enrichment score": 4.76}
{"Change": "YYVKRRLVFGADD [K2Y]", "normalised enrichment score": 5.4}
{"Change": "YKVKLRLVFGADD [R5L]", "normalised enrichment score": 0.155}
{"Change": "YKVKRRLVNGADD [F9N]", "normalised enrichment score": 0.282}
{"Change": "YKVKRRLVCGADD [F9C]", "normalised enrichment score": 0.489}
